Measured values gathered from unrelated publications.
Every numbered part comes from another study and shows a few of its results, in no order. Values joined by “and” are separate records of one study, mostly repeats; a detail may differ. Substitutions count along the parent as printed.
Sequence of UniProt P10721 (whole entry, unmodified, looked up): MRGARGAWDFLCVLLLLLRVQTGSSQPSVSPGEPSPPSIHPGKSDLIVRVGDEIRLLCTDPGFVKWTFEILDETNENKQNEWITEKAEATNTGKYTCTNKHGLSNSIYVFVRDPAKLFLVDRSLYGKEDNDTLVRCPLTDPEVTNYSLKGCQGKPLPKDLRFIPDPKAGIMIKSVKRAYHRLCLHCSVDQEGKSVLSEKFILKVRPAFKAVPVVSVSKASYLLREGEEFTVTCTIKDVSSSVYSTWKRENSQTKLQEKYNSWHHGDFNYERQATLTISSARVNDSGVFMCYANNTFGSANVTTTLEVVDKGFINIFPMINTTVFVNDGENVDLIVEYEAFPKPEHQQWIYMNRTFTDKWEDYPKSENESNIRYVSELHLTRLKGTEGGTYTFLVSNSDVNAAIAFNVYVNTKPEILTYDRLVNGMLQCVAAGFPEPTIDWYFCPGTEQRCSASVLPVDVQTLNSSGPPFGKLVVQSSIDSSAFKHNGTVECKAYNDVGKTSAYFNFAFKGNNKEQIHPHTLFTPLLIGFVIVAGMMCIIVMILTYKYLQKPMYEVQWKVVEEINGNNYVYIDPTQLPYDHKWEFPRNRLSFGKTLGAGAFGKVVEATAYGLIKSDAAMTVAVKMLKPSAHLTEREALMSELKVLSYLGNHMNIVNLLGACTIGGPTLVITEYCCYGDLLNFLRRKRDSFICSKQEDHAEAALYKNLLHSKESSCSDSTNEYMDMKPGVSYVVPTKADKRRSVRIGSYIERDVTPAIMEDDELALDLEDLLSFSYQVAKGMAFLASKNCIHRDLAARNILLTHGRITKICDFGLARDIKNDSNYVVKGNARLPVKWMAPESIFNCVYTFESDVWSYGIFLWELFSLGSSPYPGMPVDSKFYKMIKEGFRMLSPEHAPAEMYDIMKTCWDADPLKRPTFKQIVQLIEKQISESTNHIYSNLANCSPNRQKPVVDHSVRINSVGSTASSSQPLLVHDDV
Sequence of UniProt Q8NG66 (whole entry, looked up): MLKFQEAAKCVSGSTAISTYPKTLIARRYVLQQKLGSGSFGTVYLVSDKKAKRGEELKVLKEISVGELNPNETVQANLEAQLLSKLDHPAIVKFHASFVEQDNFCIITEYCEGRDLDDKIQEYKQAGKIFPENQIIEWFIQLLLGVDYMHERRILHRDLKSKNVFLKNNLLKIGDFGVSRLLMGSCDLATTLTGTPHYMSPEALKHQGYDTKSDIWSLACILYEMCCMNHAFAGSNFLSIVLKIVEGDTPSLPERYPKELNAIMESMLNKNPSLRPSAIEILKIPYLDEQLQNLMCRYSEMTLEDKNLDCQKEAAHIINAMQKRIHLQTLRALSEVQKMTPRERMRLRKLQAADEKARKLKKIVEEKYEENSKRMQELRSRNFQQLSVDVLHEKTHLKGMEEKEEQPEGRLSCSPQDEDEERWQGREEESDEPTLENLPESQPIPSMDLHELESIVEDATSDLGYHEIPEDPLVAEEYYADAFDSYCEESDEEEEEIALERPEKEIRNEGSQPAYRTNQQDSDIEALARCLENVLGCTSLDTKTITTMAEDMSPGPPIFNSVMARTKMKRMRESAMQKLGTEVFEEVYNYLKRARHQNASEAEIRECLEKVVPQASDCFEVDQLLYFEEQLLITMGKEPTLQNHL
Sequence of UniProt Q14289 (whole entry, looked up): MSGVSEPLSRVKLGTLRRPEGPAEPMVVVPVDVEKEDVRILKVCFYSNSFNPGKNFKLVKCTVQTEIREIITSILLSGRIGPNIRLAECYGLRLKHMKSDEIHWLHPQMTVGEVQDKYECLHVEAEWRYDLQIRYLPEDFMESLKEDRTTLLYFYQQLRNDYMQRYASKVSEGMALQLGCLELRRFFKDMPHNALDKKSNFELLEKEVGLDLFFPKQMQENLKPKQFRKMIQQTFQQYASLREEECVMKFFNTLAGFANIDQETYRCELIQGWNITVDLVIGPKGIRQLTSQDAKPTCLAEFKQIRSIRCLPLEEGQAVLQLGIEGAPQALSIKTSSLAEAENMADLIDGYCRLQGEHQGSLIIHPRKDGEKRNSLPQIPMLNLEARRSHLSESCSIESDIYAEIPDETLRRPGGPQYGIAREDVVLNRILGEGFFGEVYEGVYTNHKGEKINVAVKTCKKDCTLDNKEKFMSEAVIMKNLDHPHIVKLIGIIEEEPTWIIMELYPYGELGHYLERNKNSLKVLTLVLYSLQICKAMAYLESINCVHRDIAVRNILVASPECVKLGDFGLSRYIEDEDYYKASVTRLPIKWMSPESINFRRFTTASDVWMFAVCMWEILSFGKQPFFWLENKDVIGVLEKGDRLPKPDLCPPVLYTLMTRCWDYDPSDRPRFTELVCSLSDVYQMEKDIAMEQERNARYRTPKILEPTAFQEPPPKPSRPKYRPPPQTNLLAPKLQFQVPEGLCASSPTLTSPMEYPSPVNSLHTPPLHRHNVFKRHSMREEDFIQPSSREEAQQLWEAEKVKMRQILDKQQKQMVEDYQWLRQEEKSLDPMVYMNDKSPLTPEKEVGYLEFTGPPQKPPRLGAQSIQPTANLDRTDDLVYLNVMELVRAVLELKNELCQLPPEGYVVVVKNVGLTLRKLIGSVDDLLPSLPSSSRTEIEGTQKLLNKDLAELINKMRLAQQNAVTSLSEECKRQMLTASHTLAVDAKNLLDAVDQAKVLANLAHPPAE
Sequence of UniProt O43781 (whole entry, looked up): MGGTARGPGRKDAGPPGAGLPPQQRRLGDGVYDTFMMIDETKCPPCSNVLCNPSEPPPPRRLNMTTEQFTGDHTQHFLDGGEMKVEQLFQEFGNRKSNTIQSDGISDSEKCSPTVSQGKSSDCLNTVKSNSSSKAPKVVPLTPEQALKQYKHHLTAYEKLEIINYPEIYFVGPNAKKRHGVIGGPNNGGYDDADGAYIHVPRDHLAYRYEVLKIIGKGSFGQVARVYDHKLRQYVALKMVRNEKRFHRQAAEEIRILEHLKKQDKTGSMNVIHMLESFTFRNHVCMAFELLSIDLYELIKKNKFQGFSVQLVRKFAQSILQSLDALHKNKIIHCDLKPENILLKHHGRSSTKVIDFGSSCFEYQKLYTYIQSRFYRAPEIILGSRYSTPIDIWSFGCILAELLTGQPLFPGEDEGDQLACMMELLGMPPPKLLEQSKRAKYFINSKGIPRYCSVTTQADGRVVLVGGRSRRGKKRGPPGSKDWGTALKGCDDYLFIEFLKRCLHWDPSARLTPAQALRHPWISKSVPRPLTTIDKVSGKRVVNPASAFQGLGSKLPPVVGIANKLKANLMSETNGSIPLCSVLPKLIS
Sequence of UniProt O14757 (whole entry, looked up): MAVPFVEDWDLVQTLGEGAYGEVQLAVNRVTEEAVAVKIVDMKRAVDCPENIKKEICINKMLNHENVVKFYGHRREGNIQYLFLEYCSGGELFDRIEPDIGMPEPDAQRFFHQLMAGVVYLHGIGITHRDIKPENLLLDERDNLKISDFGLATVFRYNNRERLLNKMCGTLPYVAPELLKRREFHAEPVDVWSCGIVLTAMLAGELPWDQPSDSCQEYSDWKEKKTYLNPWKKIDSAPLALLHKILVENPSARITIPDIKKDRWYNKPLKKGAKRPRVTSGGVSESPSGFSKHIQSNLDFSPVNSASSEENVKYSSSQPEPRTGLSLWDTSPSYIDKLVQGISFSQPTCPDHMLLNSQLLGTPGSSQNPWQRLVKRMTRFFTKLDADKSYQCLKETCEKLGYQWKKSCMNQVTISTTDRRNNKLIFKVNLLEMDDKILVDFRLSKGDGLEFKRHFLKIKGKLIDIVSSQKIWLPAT
Sequence of UniProt Q8NFD2 (whole entry, looked up): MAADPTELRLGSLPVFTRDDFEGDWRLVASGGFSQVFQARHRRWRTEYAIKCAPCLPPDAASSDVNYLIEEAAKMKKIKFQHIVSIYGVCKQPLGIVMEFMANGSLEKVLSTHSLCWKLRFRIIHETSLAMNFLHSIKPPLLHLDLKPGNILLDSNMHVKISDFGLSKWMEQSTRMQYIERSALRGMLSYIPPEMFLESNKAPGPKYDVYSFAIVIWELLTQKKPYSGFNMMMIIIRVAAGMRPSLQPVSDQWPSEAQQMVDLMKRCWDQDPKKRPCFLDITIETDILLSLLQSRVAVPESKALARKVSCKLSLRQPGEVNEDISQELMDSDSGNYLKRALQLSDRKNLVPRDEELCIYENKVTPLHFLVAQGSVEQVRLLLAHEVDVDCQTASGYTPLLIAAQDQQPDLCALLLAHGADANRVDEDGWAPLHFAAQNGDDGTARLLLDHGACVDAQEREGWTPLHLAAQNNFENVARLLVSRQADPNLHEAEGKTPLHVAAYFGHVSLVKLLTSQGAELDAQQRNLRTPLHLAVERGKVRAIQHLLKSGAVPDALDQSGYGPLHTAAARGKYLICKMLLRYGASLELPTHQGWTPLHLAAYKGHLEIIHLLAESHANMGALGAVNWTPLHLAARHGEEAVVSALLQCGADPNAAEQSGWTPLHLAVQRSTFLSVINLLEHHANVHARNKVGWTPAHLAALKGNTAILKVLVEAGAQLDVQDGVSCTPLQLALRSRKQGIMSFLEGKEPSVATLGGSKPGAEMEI

Block 1
Target: Calcium/calmodulin-dependent protein kinase type II subunit alpha (CAMK2A, Homo sapiens, UniProt Q9UQM7)
Sequence of UniProt Q9UQM7 (whole entry, looked up): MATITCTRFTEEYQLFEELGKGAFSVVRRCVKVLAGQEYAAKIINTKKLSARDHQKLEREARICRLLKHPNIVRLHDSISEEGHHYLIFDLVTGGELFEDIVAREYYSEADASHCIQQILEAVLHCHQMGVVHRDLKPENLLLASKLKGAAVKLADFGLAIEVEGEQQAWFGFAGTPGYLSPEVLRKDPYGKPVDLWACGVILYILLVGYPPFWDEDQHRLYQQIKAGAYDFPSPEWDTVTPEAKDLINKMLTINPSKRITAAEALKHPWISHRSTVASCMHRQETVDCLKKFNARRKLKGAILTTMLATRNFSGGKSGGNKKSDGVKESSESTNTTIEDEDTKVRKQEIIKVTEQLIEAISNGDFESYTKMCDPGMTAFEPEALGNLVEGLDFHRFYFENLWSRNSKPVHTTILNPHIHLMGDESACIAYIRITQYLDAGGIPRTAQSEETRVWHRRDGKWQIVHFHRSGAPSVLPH
Effect on: enzyme activity
Action: inhibitor
Tested at: 10 µM
For `CCc1c2c(nc3ccccc13)-c1cc3c(c(=O)n1C2)COC(=O)[C@]3(O)CC`, the inhibition was -108%.
`CN1C(=O)COc2c(C(=O)NC3CN4CCC3CC4)cc(Cl)cc21` (stereo not shown) has an inhibition of -8%.
With `c1cncc(C2=NCCC2)c1` the inhibition was -1%.
`CC1=CC(=O)c2c(O)cccc2C1=O` gave an inhibition of -13%.

Block 2
Structure (SMILES): CC(C)(C)c1cc(C=C(C#N)C#N)cc(Br)c1O
Effect on: enzyme activity
Action: inhibitor
Tested at: 0.5 µM
For PAK4 (Homo sapiens, UniProt O96013); relative to: control: remaining activity read 124%.
It gave 86.4% for remaining activity (VRK1 (Homo sapiens, UniProt Q99986)).
For DYRK3 (Homo sapiens, UniProt O43781): remaining activity read 102%.

Block 3
SMILES: Cn1cncc1[C@](O)(COc1ccc(C#N)cc1-c1ccc(OC(F)(F)F)cc1)c1ccc(C#N)cc1
Effect on: cell-free assay
Technique: competition with immobilised ligand
Tested at: 1 µM
The remaining binding was 100% (KIT (Homo sapiens, UniProt P10721)).
CDK11B (Homo sapiens, UniProt P21127) — remaining binding: 100%.
For STK35 (Homo sapiens, UniProt Q8TDR2): remaining binding read 100%.
It gave 94% for remaining binding (CLK4 (Homo sapiens, UniProt Q9HAZ1)).
It gave 99% for remaining binding (PRKAA1 (Homo sapiens, UniProt Q13131)).
The remaining binding was 100% (LATS2 (Homo sapiens, UniProt Q9NRM7)).
NTRK3 (Homo sapiens, UniProt Q16288) — remaining binding: 80%.
KIT (Homo sapiens, UniProt P10721, V559D/V654A) — remaining binding: 100%.
It gave 94% for remaining binding (YES1 (Homo sapiens, UniProt P07947)).
The remaining binding was 100% (Tyrosine-protein kinase ABL1, non-phosphorylated (ABL1, Homo sapiens, UniProt P00519, T315I)).
The remaining binding was 99% (DCLK3 (Homo sapiens, UniProt Q9C098)).
STK3 (Homo sapiens, UniProt Q13188) — remaining binding: 77%.
PIK3CB (Homo sapiens, UniProt P42338) — remaining binding: 96%.
The remaining binding was 94% (PLK2 (Homo sapiens, UniProt Q9NYY3)).
For PIP4K2C (Homo sapiens, UniProt Q8TBX8): remaining binding read 87%.
The remaining binding was 97% (CHEK1 (Homo sapiens, UniProt O14757)).
CHEK2 (Homo sapiens, UniProt O96017) — remaining binding: 100%.
NEK11 (Homo sapiens, UniProt Q8NG66) — remaining binding: 100%.
It gave 100% for remaining binding (MAP4K1 (Homo sapiens, UniProt Q92918)).
For PIP5K1C (Homo sapiens, UniProt O60331): remaining binding read 93%.
MAP2K2 (Homo sapiens, UniProt P36507) — remaining binding: 94%.
TLK2 (Homo sapiens, UniProt Q86UE8) — remaining binding: 100%.
The remaining binding was 100% (ANKK1 (Homo sapiens, UniProt Q8NFD2)).
PIK3CA (Homo sapiens, UniProt P42336, I800L) — remaining binding: 85%.
For PTK2B (Homo sapiens, UniProt Q14289): remaining binding read 62%.

Block 4
Organism: Sarcocystis neurona
Effect on: parasite growth
Tested at: 10 µM
Notes: secondary screen
`C[C@]12CCC(=O)C=C1CC[C@@H]1[C@@H]2CC[C@@]2(C)[C@H]1CC[C@]2(C)O` gave an inhibition of 11.4%.
`c1ccc2c3c([nH]c2c1)CNCC3` gave an inhibition of -55.3%.
The inhibition of `c1ccc2c(c1)Nc1ccccc1S2` is reported as -62.6%.
`C[C@]12Cc3c[nH]nc3C[C@@H]1CC[C@@H]1[C@@H]2CC[C@@]2(C)[C@H]1CC[C@]2(C)O` gave an inhibition of 4.5%.

Block 5
Cell line: A-375
Tested at: 100 µM
Time: 36 h
The viability of `CC(C)=CCOc1c2occc2cc2ccc(=O)oc12` is reported as 74.7%.
`CC(CCc1ccccc1)NC(C)C(O)c1ccc(O)cc1` (stereo not shown) has a viability of 70%.
`CCN(CC)CCOC(=O)C(O)(c1ccccc1)c1ccccc1` gave a viability of 94.3%.

Block 6
SMILES: CC[C@@H](C)c1nc2cc(Nc3ccnc4ccc(S(=O)(=O)C(C)C)cc34)ccc2s1.Cl
Cell line: L929 RIPK3-/- reexpressing RIPK3 K51A
Technique: CCK-8
For 12.5 µM, together with: zVAD: survival read 84.3% and 95.7% and 86.3% and 95% and 112%.
It gave 105% and 85.9% and 91.5% and 104% for survival (1.563 µM, together with: zVAD).
The survival was 96.2% and 96% and 97.4% and 99.2% (1.563 µM).

Block 7
Target: CCNA1, cyclin fold, Cln2 fusion (human)
Technique: yeast growth competition, sequencing
Medium: yeast
Notes: strong parent motif
Relative to: not given
Direction: higher = stronger binding
Starting sequence: viral docking peptide; YKVKRRLVFGADD; partner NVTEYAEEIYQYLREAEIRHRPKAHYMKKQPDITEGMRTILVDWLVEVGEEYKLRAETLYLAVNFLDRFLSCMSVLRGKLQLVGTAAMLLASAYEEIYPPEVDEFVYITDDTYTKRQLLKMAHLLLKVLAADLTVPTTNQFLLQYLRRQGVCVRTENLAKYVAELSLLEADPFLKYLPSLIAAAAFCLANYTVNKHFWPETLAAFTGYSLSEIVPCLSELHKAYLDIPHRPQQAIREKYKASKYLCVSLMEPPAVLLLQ
Under “normalised enrichment score”, `YKVKPRLVFGADD [R5P]` is recorded as -0.0526.
For `YKVKRALVFGADD [R6A]`, “normalised enrichment score” read 0.631.
For `YKVKRRNVFGADD [L7N]`, “normalised enrichment score” read 0.716.
Under “normalised enrichment score”, `YQVKRRLVFGADD [K2Q]` is recorded as 1.26.
For `YKVKRNLVFGADD [R6N]`, “normalised enrichment score” read 0.268.
Under “normalised enrichment score”, `YKVKRRLVFGACD [D12C]` is recorded as 1.1.
For `YKVKRRAVFGADD [L7A]`, “normalised enrichment score” read 0.237.
`YKCKRRLVFGADD [V3C]` — result for “normalised enrichment score”: 1.23.

Mixed results
Cell line: mouse MPNST tumor cells
Technique: high-content immunofluorescence imaging
Refers to: nuclear SOX9
Tested at: 10 µM
Time: 12 h
Notes: mean of 2 replicates
Relative to: DMSO control
Direction: higher = more nuclear SOX9
`CN1[C@@H]2C[C@@H](OC(=O)[C@H](CO)c3ccccc3)C[C@H]1[C@@H]1O[C@@H]12`: “nuclear SOX9 intensity” 103 % of DMSO.
`CN1C(=O)C(Cc2ccc3ccccc3c2)N=C(c2ccc(O)cc2)c2cc(Cl)ccc21` (stereo not shown): “nuclear SOX9 intensity” 117 % of DMSO.
